Published values gathered from unrelated publications.
Lines come from different studies, so protocols differ. ± gives the spread as reported.
CHRM1: Muscarinic acetylcholine receptor M1 (CHRM1, Homo sapiens, UniProt P11229)

| Substance | target | test | system | setting | scale | measurement | value |
| --- | --- | --- | --- | --- | --- | --- | --- |
| COc1ccc(C)c2sc(NC(=O)CC3CC3)nc12 | Muscarinic acetylcholine receptor M4 (CHRM4, Homo sapiens, UniProt P08173) | calcium mobilization, positive allosteric modulator | CHO expressing hM4 and Gqi5 | concentration not given, added: acetylcholine EC20 |  | activity | inactive |
| OCCN(CCO)c1nc(N2CCCCC2)c2nc(N(CCO)CCO)nc(N3CCCCC3)c2n1 | UDP-glucuronosyltransferase 1A1 (UGT1A1, Homo sapiens, UniProt P22309) | enzyme activity, inhibitor |  | 20 µM |  | remaining activity | 16.9% |
| CCCSc1nc2c([nH]1)c(=S)n(C)c(=S)n2C | Progesterone receptor (PGR, Homo sapiens, UniProt P06401) | reporter gene, antagonist, MMTV-luciferase | T47D/A1-2 | 10 µM, 24 h, added: 5 nM progesterone | baseline: maximal activity | remaining activity | 64% |
| CSc1nc(C)c(-c2ccnc(Nc3ccc(N4CCOCC4)cc3)c2)[nH]1 | Mitogen-activated protein kinase 10 (MAPK10, Homo sapiens, UniProt P53779) | thermal stability, nanoDSF |  | 50 µM |  | melting temperature | 54.8 °C |
| CCc1c(C)n(Cc2ccc(-c3ccccc3C(=O)O)cc2)c2ccccc12 | Peroxisome proliferator-activated receptor gamma (PPARG, Homo sapiens, UniProt P37231) |  | COS-7 | 10 µM, 39 h |  | Emax | 39.2% |
| CNc1nc2c(N)ncnc2n1[C@@H]1O[C@@H]2COP(=O)([O-])O[C@H]2[C@H]1O.[Na+] | cAMP-dependent protein kinase type II-beta regulatory subunit, holoenzyme with catalytic subunit (Prkar2b, Rattus norvegicus, UniProt P12369, S112A) | PKA holoenzyme activation, activator, fluorescence anisotropy |  |  | baseline: RIIβ over RIα, higher = RIIβ-selective | selectivity ratio | 0.5 |
| C=CC(=O)NCCCC[C@H](NC(=O)OCc1ccccc1)C(=O)N1CCN(c2ccccc2Cl)CC1 | Protein-glutamine gamma-glutamyltransferase (TGM2, Homo sapiens, UniProt P21980) |  |  | pH 6.5 |  | kinact | 0.0162 s⁻¹ |
| CC1=CC(=O)CC(C)(C)C1=O | Uncharacterized protein PH0856 (Pyrococcus horikoshii, UniProt O58586) |  |  | 24 h, pH 7, 30 °C, aerobic, added: 10 mM substrate, 15 mM NAD(P)H |  | conversion | 7 to 29% |
| O=c1cc(-c2ccccc2OCc2ccc(-c3ncco3)cc2)ncn1C1CCCCC1O (stereo not drawn) | CHRM1 | allosteric agonist, IP1 accumulation | CHO-M1 cells | 10 µM, unit not given | baseline: maximum ACh response | change in baseline activity | 58.8 ± 3.8 |
| CCN(CCO)C(C)C(=O)Nc1c(C)csc1C(=O)OC (stereo not drawn) | Sodium channel protein type 10 subunit alpha (SCN10A, Homo sapiens, UniProt Q9Y5Y9) | cell membrane chromatography |  |  | higher = stronger binding | capacity factor k′ | 3 |
| C[C@@H](O)[C@H](NC(=O)[C@H](CS)NC(=O)[C@@H](N)CO)C(=O)O | Glyceraldehyde-3-phosphate dehydrogenase (GAPDH, Homo sapiens, UniProt P04406) | enzyme activity, spectrophotometric |  | 10 µM | baseline: vehicle | remaining activity | 100 ± 1.19% |
| CC(C)n1cc(-c2ccc(COc3ccccc3-c3cc(=O)n(C4CCCCC4O)cn3)cc2)cn1 (stereo not drawn) | CHRM1 | allosteric agonist, IP1 accumulation | CHO-M1 cells | 10 µM, unit not given | baseline: maximum ACh response | change in baseline activity | 81 ± 2.7 |
| SSQLRYLARSQRITIQLIAGS | Non-selective voltage-gated ion channel VDAC1 (VDAC1, Homo sapiens, UniProt P21796) | isothermal titration calorimetry | peptide | 100 µM, pH 7.5, 20 °C |  | binding | no effect |
| NCc1cccc(C2CCN(C(=O)c3cccc(OCC(=O)C4(O)CCC4)c3)CC2)c1 | Tryptase beta-1 (Homo sapiens, UniProt Q15661) | inhibitor |  | 10 µM, 9 d, enzyme 100 nM, unbound removed |  | remaining activity | < 25% |
| Cc1ccc(COc2ccccc2-c2cc(=O)n(C3CCCCC3O)cn2)cn1 (stereo not drawn) | CHRM1 | allosteric agonist, IP1 accumulation | CHO-M1 cells | 10 µM, unit not given | baseline: maximum ACh response | change in baseline activity | 42.6 ± 3.2 |

Repeated from above:
| Substance | target | test | system | setting | scale | measurement | value |
| --- | --- | --- | --- | --- | --- | --- | --- |
| CNc1nc2c(N)ncnc2n1[C@@H]1O[C@@H]2COP(=O)([O-])O[C@H]2[C@H]1O.[Na+] | cAMP-dependent protein kinase type II-beta regulatory subunit, holoenzyme with catalytic subunit (Prkar2b, Rattus norvegicus, UniProt P12369, S112A) | PKA holoenzyme activation, activator, fluorescence anisotropy |  |  | baseline: RIIβ over RIα, higher = RIIβ-selective | selectivity ratio | 0.5 |
| SSQLRYLARSQRITIQLIAGS | Non-selective voltage-gated ion channel VDAC1 (VDAC1, Homo sapiens, UniProt P21796) | isothermal titration calorimetry | peptide | 100 µM, pH 7.5, 20 °C |  | binding | no effect |
